Experimental data from different studies.
A part holds a random share of what one study measured. Changes are numbered by the printed parent chain.

Series 1
Target: Centromere-binding protein 1, full length, N-terminal tag (CBF1, Saccharomyces cerevisiae, UniProt P17106, residues 1-351)
Sequence of UniProt P17106 (whole entry, looked up): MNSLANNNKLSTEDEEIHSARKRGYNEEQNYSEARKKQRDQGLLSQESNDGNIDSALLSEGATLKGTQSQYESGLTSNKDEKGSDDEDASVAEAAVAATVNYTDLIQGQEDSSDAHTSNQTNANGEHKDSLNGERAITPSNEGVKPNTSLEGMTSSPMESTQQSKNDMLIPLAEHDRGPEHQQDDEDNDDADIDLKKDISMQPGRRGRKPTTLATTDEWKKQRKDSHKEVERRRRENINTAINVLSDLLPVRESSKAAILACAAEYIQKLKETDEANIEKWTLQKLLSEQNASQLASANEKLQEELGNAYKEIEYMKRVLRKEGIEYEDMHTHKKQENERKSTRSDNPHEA
Method: protein-binding microarray
Form: double-stranded DNA, one strand shown
Medium: in vitro
Tested at: 0.8 µM
Notes: whole 60-bp probe, no competitor
Direction: higher = stronger binding
Quantity: fluorescence intensity
All sequences stand within: … GTCTTGATTCGCTTGACGCTGCTG
Sequence = GAACTTGGTGTGATTGTCGTCACCTTGCCATCCTAG; value = 519 a.u.
Sequence = GAAGTACCAAAAATGCACGTGTCTGTACACAATTAG; value = 6430 a.u.
Sequence = CCTAACTACTATAGGCACGTGATATAGCTTCGTACA; value = 17800 a.u.
Sequence = CTAAATATTGTATAGTACGTGATTCTGGCTAGTTTC; value = 640 a.u.
Sequence = CTACTCTTCAGCTATCACAAGTCATTAGATTCTTTC; value = 644 a.u.
Sequence = GAACCATATGAAAAGAACGTGGATTTTGATGTATAG; value = 550 a.u.
Sequence = GAAGCAGTACGCTATCATGTGATGAAATATATTTAG; value = 3460 a.u.
Sequence = TGTACGAAGCTATCACACACGCATATAGTAGTTAGG; value = 554 a.u.
Sequence = CTAACTTTCGCCCACGTGCGTACATCATTTACTTTC; value = 3780 a.u.
Sequence = CTACAAAAACAAAACCGCATCACCTTTGGCAGCTTC; value = 494 a.u.
Sequence = CTAGTTCAAGCTATTCACCTGTTACAGCAGTAGTTC; value = 537 a.u.
Sequence = CTAAGCCGGTGTAGCCACGTGTTAAATCTTGACTTC; value = 3950 a.u.
Sequence = TGTACGAAGCTATAGCACGTGGGTATAGTAGTTAGG; value = 4930 a.u.
Sequence = CTAAAAAAAGCCAACGAGATCACGTGCACAGAATTC; value = 22900 a.u.
Sequence = GAACAGCTGTAATCTATCGTGGTCATTTCTTGTTAG; value = 536 a.u.
Sequence = GAATTTAAGCAACATCAGCTGCACTAGTTGAGCTAG; value = 517 a.u.
Sequence = GAATTGTCTTAGTATCACCTGAGTGGTTATTCATAG; value = 1090 a.u.
Sequence = CTACGTATGTCTCAGCACGTCCTTCGAGCGTGGTTC; value = 511 a.u.
Sequence = CTAGAACTCGCTGGTGATGACATGCCGAAATTATTC; value = 553 a.u.

Series 2
Target: CCNB3, cyclin fold, Cln2 fusion (human)
Method: yeast growth competition, sequencing
Medium: yeast
Notes: weak parent motif
Reference: not given
Direction: higher = stronger binding
Quantity: normalised enrichment score
Parent: RB1 docking peptide (human); PKPLKKLRFDIEG; partner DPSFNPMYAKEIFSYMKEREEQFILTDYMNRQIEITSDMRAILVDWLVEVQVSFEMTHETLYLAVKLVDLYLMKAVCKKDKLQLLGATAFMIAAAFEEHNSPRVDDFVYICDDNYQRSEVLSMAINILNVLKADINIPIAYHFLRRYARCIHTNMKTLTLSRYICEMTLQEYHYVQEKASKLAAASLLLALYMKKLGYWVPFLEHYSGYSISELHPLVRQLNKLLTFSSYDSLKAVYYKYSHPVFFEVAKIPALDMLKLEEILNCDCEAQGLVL
Change = P3F; value = -0.306
Change = F9A; value = 0.501
Change = D10T; value = -0.28
Change = I11P; value = -0.174
Change = G13R; value = 0.469
Change = K2G; value = -0.405
Change = E12F; value = 0.217
Change = L7F; value = 0.0951
Change = I11Y; value = -0.15
Change = P3R; value = 0.423
Change = P1N; value = -0.43
Change = D10G; value = 0.97
Change = L4N; value = 0.284
Change = K2R; value = -0.142
Change = R8L; value = -0.108
Change = D10Y; value = 0.265
Change = P1K; value = 0.805
Change = P1T; value = 0.146
Change = K5Q; value = 0.3
Change = L4W; value = -0.0434
Change = G13F; value = -0.0514
Change = D10R; value = 0.774
Change = K2V; value = 0.581
Change = L4V; value = 0.553
Change = R8F; value = 0.0457

Series 3
Target: ABI1, truncated, D143A, DHFR fusion (Arabidopsis thaliana)
Method: DHFR PCA, deep sequencing
Medium: yeast
Notes: methotrexate growth selection, single substitutions
Together with: (+)-ABA 0.11 µM
Reference: wild-type fitted maximum
Direction: higher = stronger binding
Quantity: relative binding score
Parent: PYL1, truncated, DHFR fusion (Arabidopsis thaliana); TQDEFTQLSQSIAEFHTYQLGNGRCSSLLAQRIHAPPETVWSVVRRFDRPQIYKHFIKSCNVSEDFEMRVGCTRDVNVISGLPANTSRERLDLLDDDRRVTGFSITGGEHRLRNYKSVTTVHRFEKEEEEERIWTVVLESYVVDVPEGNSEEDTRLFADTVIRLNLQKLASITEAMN; partner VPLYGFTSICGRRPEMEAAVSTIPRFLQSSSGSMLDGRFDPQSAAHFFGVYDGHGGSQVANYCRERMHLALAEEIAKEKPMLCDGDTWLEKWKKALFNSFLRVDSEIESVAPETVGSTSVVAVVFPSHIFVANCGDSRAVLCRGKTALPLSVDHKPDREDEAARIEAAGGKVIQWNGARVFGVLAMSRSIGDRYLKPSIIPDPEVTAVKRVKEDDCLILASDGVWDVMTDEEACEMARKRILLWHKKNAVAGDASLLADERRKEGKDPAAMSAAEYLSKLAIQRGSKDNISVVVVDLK
Change = L156F; value = 2.33%
Change = N61S; value = 54.1%
Change = S63F; value = 3.6%
Change = T17E; value = -6.22%
Change = D159L; value = -4.83%
Change = H34D; value = 46.3%
Change = I12D; value = -3.1%
Change = D144H; value = -3.88%
Change = N177E; value = 33.1%
Change = E128G; value = 74.3%
Change = W134Y; value = 72.2%
Change = V143N; value = -2.33%
Change = L29H; value = 34.5%

Series 4
Target: Ras GTPase-activating protein-binding protein 1, full length (G3BP1, Homo sapiens, UniProt Q13283)
Sequence of UniProt Q13283 (whole entry, looked up): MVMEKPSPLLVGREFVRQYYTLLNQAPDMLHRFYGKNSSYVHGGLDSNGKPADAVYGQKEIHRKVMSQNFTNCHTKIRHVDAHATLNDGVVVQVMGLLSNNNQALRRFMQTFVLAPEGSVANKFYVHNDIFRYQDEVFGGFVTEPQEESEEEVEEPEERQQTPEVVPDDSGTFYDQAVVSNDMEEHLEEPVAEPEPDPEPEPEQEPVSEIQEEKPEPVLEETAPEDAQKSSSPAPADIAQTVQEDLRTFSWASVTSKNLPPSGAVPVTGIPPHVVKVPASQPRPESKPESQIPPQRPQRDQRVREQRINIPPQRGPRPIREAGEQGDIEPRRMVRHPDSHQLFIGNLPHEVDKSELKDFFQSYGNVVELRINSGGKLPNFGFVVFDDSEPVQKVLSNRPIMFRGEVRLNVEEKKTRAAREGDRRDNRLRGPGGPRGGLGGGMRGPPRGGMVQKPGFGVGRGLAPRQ
Method: RNA Bind-n-Seq
Form: RNA
Medium: in vitro
Tested at: 200 nM
Notes: whole 134-nt RNA, ends assumed
Together with: 150 mM LiCl
Reference: input library
Direction: higher = stronger binding
Quantity: log2 enrichment
Each molecule: 7-deaza-guanosine replaces G
All sequences stand within: GGGAGUUCUACAGUCCGACGAUC … UGGAAUUCUCGGGUGUCAAGG
Sequence = UCAAGUCCUGUGCUACACAUCGUAUGUACCGAAUCGGGGAAGGAAGGGGAAGGGAAAGUAUUAUGUUACGCCGUUCGGAUCUGCACUUCC; value = -0.22
Sequence = AGUCCUGUGCUACACAUCGUAUGUACCGAAUCGGGUGGGUUUUUGGGAAAAAAAGGGAAAGUAUUAUGUUACGCCGUUCGGAUCUGCACU; value = -0.708
Sequence = UGGGAGGUGGAUUUUGUUUAUUUUUUUAGCUCAUUUCCAGGGGUGGGAAUUUUUUUUUAAUAUGUGUCAUGAAUAAAGUUGUGUUUGAAA; value = 0.195
Sequence = UGGCCCUGGUGGCCUGCGGGGAGGAAGAGGUGGCCUCAUGGAUCGUGGUGGUCCCGGUGGAAUGUUCAGAGGUGGCCGUGGUGGAGACAG; value = 0.868
Sequence = ACCAUGCAGGUGGGCAUCUUUGGGAAGUGGGGCAAGGGGAAAAUAGGGAGGGGGGUAACACUUUGGGAACAGGUGGUCCCAGGUCGUUUC; value = 0.58
Sequence = AAGUCCUGUGCUACACAUCGUAUGUACCGAAUCGGGUUUUUGGGUUUGGGUUUGGGAAAGUAUUAUGUUACGCCGUUCGGAUCUGCACUU; value = -0.773
Sequence = UGGGAGGUGGAUUUUGUUUAUUUUUUUAGCUCAUUUCCAGGUGUGGGAAUUUUUUUUUAAUAUGUGUCAUGAAUAAAGUUGUUUUUGAAA; value = -0.658
Sequence = GUCCUGUGCUACACAUCGUAUGUACCGAAUCGGGUUUUUGGGUUUUUGGGGUUUUUGGGAAAGUAUUAUGUUACGCCGUUCGGAUCUGCA; value = -0.256

Other studies, line by line
Substance = PhoQ, residues 284 288 289 292 302 303 NLSRDF; target = PhoP, residues 12 14 15 18 19 FWNTL (Escherichia coli, UniProt P23836); test = Sort-seq, item: YFP reporter; test system = E. coli; setting = PhoQ-PhoP variant library, together with: 10 µM Mg2+; how to read = reference: high Mg2+ state, higher = stronger signaling; quantity = fold induction; value = 0.432

Some of these lines once more (series 2):
Change = E12F; value = 0.217
Change = L7F; value = 0.0951
Change = I11Y; value = -0.15
Change = P3R; value = 0.423
Change = P1N; value = -0.43
Change = D10G; value = 0.97
Change = L4N; value = 0.284
Change = K2R; value = -0.142
Change = R8L; value = -0.108
Change = D10Y; value = 0.265
